Values quoted from earlier work that unrelated publications cite.
Protocols differ between the studies behind these lines. ± gives the spread as reported.
HDAC1: Histone deacetylase 1 (HDAC1, Homo sapiens, UniProt Q13547)
Chain of UniProt Q13547 (whole entry, looked up): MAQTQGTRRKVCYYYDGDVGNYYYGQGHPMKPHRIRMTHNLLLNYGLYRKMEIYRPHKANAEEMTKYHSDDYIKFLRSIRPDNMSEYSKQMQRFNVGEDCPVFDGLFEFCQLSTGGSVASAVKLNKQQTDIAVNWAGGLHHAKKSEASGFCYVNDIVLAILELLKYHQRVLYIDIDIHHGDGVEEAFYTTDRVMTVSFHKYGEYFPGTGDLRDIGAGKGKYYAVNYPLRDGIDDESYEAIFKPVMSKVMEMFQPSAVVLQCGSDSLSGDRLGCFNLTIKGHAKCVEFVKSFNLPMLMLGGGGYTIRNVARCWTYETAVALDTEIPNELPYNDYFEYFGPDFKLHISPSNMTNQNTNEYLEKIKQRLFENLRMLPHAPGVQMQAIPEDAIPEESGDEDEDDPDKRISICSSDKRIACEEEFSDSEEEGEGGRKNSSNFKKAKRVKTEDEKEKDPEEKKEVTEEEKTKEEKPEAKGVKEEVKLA
ACHE: Acetylcholinesterase (ACHE, Homo sapiens, UniProt P22303)
Chain of UniProt P22303 (whole entry, looked up): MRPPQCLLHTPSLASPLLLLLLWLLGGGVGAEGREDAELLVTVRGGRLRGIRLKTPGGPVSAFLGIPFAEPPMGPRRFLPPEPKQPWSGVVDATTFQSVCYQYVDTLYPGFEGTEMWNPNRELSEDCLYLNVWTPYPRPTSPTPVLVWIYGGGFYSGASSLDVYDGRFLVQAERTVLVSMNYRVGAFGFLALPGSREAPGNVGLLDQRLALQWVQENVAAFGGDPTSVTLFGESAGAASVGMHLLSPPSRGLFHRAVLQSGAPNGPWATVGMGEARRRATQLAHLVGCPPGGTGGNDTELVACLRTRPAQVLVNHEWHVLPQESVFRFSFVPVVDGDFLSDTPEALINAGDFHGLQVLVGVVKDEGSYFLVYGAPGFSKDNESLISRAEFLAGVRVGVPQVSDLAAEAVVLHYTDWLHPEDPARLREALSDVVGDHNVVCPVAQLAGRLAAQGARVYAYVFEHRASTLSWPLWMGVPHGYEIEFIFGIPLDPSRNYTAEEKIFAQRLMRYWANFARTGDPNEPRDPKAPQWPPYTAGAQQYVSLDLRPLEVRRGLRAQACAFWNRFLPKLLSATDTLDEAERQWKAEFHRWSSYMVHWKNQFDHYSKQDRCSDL
BCHE: Cholinesterase (BCHE, Equus caballus, UniProt P81908)
Chain of UniProt P81908 (whole entry, looked up): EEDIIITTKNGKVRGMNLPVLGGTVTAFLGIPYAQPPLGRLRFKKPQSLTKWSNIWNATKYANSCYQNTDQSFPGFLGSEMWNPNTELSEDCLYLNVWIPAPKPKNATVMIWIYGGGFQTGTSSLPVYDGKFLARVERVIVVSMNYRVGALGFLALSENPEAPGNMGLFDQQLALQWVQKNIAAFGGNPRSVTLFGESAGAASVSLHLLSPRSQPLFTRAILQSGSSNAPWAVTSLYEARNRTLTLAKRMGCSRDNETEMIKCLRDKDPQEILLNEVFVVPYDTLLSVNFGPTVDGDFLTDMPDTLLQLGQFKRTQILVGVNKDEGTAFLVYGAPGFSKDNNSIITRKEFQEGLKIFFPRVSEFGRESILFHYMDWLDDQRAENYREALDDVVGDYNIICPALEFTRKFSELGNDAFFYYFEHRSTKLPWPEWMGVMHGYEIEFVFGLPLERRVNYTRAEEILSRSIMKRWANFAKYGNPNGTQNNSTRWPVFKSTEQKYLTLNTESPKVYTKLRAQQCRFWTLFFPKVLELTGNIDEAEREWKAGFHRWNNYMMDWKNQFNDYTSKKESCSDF
Chain of UniProt Q9UBN7 (whole entry, looked up): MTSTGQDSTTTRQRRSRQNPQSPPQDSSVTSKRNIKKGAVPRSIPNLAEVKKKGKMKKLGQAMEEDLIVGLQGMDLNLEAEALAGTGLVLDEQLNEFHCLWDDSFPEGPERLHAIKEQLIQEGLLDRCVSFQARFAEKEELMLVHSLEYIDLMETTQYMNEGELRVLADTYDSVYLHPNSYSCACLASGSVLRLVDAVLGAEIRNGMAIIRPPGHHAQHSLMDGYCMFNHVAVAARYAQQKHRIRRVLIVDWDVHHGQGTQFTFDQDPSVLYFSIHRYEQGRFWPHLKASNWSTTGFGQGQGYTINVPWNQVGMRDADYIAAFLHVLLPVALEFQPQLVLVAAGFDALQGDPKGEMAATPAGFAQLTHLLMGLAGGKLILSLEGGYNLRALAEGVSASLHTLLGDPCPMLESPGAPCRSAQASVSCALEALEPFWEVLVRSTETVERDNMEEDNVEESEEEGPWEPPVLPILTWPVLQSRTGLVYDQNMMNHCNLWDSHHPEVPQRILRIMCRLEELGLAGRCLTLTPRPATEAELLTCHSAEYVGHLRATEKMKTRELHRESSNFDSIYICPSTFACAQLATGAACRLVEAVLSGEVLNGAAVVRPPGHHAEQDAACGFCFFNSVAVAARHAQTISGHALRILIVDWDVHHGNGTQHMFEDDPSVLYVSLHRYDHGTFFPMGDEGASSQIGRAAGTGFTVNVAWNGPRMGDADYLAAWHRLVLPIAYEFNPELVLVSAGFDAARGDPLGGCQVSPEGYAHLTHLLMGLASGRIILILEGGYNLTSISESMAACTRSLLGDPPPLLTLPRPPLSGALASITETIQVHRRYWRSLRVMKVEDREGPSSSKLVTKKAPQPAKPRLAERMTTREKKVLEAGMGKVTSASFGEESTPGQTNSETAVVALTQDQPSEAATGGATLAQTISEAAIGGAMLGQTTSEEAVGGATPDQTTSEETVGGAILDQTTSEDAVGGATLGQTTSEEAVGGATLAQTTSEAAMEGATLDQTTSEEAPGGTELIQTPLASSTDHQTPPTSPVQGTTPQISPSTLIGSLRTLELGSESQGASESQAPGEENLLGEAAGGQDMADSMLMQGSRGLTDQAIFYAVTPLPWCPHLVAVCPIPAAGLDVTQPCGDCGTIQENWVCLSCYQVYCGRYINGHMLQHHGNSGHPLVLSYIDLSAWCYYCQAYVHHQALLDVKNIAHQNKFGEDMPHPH
Chain of UniProt P52500 (whole entry, looked up): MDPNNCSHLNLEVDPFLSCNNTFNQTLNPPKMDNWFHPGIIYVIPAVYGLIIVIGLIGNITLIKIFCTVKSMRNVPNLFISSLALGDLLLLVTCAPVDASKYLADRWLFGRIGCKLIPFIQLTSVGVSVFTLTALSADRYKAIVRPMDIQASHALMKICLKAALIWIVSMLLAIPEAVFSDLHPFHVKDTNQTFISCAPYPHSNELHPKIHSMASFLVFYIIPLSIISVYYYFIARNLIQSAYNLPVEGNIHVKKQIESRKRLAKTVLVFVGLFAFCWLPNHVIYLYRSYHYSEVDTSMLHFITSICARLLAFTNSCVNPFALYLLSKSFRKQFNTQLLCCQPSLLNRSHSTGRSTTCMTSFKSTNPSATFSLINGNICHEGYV
Chain of UniProt P35557 (whole entry, looked up): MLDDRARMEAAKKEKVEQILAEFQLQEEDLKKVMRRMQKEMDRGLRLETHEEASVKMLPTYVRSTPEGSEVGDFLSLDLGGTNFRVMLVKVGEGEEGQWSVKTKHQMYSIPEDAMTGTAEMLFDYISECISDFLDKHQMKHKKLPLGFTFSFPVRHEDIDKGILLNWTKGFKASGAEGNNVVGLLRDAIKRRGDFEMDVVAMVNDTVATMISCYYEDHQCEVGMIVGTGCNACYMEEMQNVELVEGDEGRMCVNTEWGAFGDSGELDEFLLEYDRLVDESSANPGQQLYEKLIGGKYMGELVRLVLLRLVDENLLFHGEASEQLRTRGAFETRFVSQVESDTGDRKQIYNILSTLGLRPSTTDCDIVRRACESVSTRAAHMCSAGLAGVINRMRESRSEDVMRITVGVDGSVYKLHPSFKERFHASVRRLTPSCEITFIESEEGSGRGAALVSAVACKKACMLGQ
Chain of UniProt P27338 (whole entry, looked up): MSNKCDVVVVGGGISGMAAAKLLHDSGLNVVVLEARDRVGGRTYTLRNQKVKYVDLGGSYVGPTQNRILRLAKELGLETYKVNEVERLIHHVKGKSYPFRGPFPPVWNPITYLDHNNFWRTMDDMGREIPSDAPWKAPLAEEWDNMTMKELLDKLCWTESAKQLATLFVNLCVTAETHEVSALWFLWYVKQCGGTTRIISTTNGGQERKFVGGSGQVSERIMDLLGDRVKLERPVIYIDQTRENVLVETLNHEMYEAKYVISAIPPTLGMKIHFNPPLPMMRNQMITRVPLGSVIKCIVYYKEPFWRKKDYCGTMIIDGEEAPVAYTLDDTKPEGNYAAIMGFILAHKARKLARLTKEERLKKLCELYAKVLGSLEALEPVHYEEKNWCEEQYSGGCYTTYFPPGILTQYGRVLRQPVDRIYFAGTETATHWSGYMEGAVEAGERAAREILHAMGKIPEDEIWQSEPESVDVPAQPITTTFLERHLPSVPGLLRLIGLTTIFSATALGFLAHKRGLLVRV
Chain of UniProt P41020 (whole entry, looked up): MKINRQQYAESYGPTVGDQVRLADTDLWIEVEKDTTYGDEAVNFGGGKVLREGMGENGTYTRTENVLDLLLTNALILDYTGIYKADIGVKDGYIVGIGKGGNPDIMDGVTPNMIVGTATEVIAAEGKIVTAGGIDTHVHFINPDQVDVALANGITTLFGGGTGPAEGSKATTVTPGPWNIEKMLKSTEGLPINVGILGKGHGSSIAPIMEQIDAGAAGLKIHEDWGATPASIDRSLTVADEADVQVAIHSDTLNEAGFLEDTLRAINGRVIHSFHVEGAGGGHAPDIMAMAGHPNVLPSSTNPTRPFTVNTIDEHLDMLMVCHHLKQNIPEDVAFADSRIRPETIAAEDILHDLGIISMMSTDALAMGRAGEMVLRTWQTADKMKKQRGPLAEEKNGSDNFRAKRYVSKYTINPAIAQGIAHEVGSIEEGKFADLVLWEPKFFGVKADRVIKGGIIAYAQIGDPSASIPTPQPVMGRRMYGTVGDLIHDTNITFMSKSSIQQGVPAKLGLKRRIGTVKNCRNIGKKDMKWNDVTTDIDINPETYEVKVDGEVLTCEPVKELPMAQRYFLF

Structure (SMILES)	tested on	assay	system	setting	how to read	quantity	value
CC(=O)N(O)CCCP(=O)(O)O	Plasmodium falciparum DXP reductoisomerase	enzyme activity, inhibitor	–	–	–	IC50	18 nM
CNCP(C)(=O)O	Urease subunit alpha (Sporosarcina pasteurii, UniProt P41020)	enzyme activity, inhibitor	–	–	–	IC50	60000 ± 300 nM
O=C(O)[C@@H]1CS[C@H]2CS[C@H](CS)N21	blaNDM-1 (Klebsiella pneumoniae, UniProt C7C422)	imipenem hydrolysis, inhibitor	–	in cells	–	IC50	23000 nM
O=C(CS)NCCCCCCn1ccc2cc(F)c(Cl)cc21	HDAC1	inhibitor	–	–	–	IC50	29300 nM
CC(/C=N/NC(=N)N)=N\NC(=N)N	human AdoMetDC F233A	inhibitor	–	–	baseline: wild type	IC50	increased
CC(C)[C@@H]1NC(=O)[C@H](CCCCN)NC(=O)[C@@H](Cc2c[nH]c3ccccc23)NC(=O)[C@H](Cc2ccc(O)cc2)NC(=O)[C@@H](NC(=O)[C@H](N)Cc2ccc3ccccc3c2)CSSC[C@@H](C(=O)N[C@@H](Cc2ccc3ccccc3c2)C(N)=O)NC1=O	BRS3 (Homo sapiens, UniProt P32247)	–	Balb/3T3 expressing BRS3	–	–	IC50	338 nM
O=C(CS)NCCCCCCn1ccc2cc(Cl)c(Cl)cc21	HDAC6 (Homo sapiens, UniProt Q9UBN7)	inhibitor	–	–	–	IC50	64 nM
CC(CCC(=O)O)C1CCC2C3CCC4CC(OC(=O)C(N)CC(=O)O)CCC4(C)C3CCC12C (stereo not drawn)	ST6GAL1 (Homo sapiens, UniProt P15907)	enzyme activity, inhibitor	–	–	–	IC50	15800 ± 100 nM
COc1nc(-c2ccnc(NC(=O)C3CC3)c2)sc1C(=O)NCCCNc1c2c(nc3ccccc13)CCCC2	ACHE	inhibitor	–	–	–	IC50	6.5 nM
CN1CCC2(CC1)c1ccccc1N(Cc1ccc(C(=O)NO)cc1)C2c1cccc(Cl)c1 (stereo not drawn)	HDAC8 (Homo sapiens, UniProt Q9BY41)	inhibitor	–	with: Fluor-de-Lys substrate 50 µM	–	IC50	3420 ± 1280 nM
CC(C)(C)c1ccc(C(=O)Nc2cc(Cl)c(Br)cc2C(=O)O)cc1	Hexokinase-4 (GCK, Homo sapiens, UniProt P35557)	enzyme activity, inhibitor	–	–	–	IC50	48300 nM
CN(C)C12CC3CC(CC(C1)c1ccccc13)O2	NMDA receptor	inhibitor	–	–	–	IC50	6000 nM
CC(C)(C)NC(=O)N(CCCCCCN1C[C@H](O)[C@@H](O)[C@H](O)[C@H]1CO)C1CCCCC1	α-glucosidase (pig liver)	inhibitor	–	–	–	IC50	27800 nM
Cc1nn(CCCCCCCN2C(=O)c3ccccc3C2=O)c(=O)n1CC(F)(F)F	ACHE	enzyme activity, inhibitor	–	–	–	IC50	8070 nM
CN[C@H](CC(C)C)C(=O)N[C@H]1C(=O)N[C@@H](CC(N)=O)C(=O)N[C@H]2C(=O)N[C@H]3C(=O)N[C@H](C(=O)N[C@H](C(=O)O)c4cc(O)cc(O)c4-c4cc3ccc4O)[C@H](O)c3ccc(c(Cl)c3)Oc3cc2cc(c3O[C@@H]2O[C@H](CO)[C@@H](O)[C@H](O)[C@H]2O[C@H]2C[C@](C)(NCc3ccc(-c4ccc(Cl)cc4)cc3)[C@H](O)[C@H](C)O2)Oc2ccc(cc2Cl)[C@H]1O	–	–	mouse, plasma	intravenous, 10 mg/kg	–	Tmax	4.98 min
O=C(/C=C/c1ccc(O)cc1)c1c(O)cc(O)cc1O[C@@H]1O[C@H](O)[C@@H](O)C(O)[C@H]1O (stereo partly drawn)	acetylcholinesterase	–	–	–	–	IC50	52 µg/mL
CC1(C)CC(=O)C2=C(C1)N=c1sc(=Cc3ccc(OCCNCCc4c[nH]c5ccccc45)cc3)c(=O)n1C2c1c[nH]c2ccccc12 (stereo not drawn)	MAOA (Homo sapiens, UniProt P21397)	inhibitor	–	–	–	IC50	1930 nM
COc1cc(/C=C/c2nnc(-c3ccc(C(F)(F)F)cc3)o2)ccc1O	Beta-secretase 1 (BACE1, Homo sapiens, UniProt P56817)	–	–	–	–	IC50	146 ± 12 nM
O=C(CS)NCCCCCn1ccc2cc(Cl)c(Cl)cc21	HDAC1	inhibitor	–	–	–	IC50	7490 nM
C=CC(=O)N1CCC[C@@H](n2nc(-c3cn(C)c4ccccc34)c3c(N)ncnc32)C1	EGFR (Homo sapiens, UniProt P00533, L858R)	–	–	–	–	IC50	3.8 ± 2.8 nM
CC(C)C[C@@H](CN[C@@H](CC(C)C)C(N)=O)NC(=O)[C@H](Cc1cnc[nH]1)NC(=O)CNC(=O)[C@@H](NC(=O)[C@H](C)NC(=O)[C@H](Cc1c[nH]c2ccccc12)NC(=O)[C@H](CCC(N)=O)NC(=O)[C@H](CC(N)=O)NC(=O)CNC(=O)[C@H](CC(C)C)NC(=O)[C@H](CCCN=C(N)N)NC(=O)[C@H](CCC(N)=O)NC(=O)[C@@H]1CCC(=O)N1)C(C)C	Gastrin-releasing peptide receptor (Rattus norvegicus, UniProt P52500)	binding	–	literature species comparison	–	IC50	434 ± 65 nM
O=C(OCC[18F])C1C2CCC(CC1c1ccc(/C=C\I)cc1)N2 (stereo not drawn)	SERT	HRRT PET	awake rhesus monkey, putamen	–	–	time to peak uptake	85 min
C#CCNc1ccc(/C=C2\SC(=O)N(CN(C)CCC(Oc3ccc(C(F)(F)F)cc3)c3ccccc3)C2=O)cc1 (stereo not drawn)	MAOB (Homo sapiens, UniProt P27338)	inhibitor	–	–	–	IC50	15 nM
NC1CC1c1ccc(NC(=O)c2cccc(NC(=O)OCc3ccccc3)c2)cc1 (stereo not drawn)	Lysine-specific histone demethylase 1A, with CoREST (KDM1A, Homo sapiens, UniProt O60341)	–	–	–	–	IC50	43 ± 10 nM
CN1CCC2(CC1)c1ccccc1N(Cc1ccc(C(=O)NO)cc1)C2c1ccc(Cl)cc1 (stereo not drawn)	Histone deacetylase 8 (Schistosoma mansoni, UniProt A5H660)	inhibitor	–	with: Fluor-de-Lys substrate 50 µM	–	IC50	7710 ± 2210 nM
CN(CCCCCNc1c2c(nc3ccccc13)CCCC2)C1CCC(c2ccc(Cl)c(Cl)c2)c2ccccc21 (stereo not drawn)	BCHE	inhibitor	–	–	–	IC50	174 nM
Fc1ccc(-c2nnc(N3CCN(c4ccccn4)CC3)o2)c(F)c1	BCHE	–	–	–	–	IC50	787 ± 22 nM

Excerpt of the above:
Structure (SMILES)	tested on	assay	system	setting	how to read	quantity	value
O=C(CS)NCCCCCCn1ccc2cc(F)c(Cl)cc21	HDAC1	inhibitor	–	–	–	IC50	29300 nM
Cc1nn(CCCCCCCN2C(=O)c3ccccc3C2=O)c(=O)n1CC(F)(F)F	ACHE	enzyme activity, inhibitor	–	–	–	IC50	8070 nM
CC(CCC(=O)O)C1CCC2C3CCC4CC(OC(=O)C(N)CC(=O)O)CCC4(C)C3CCC12C (stereo not drawn)	ST6GAL1 (Homo sapiens, UniProt P15907)	enzyme activity, inhibitor	–	–	–	IC50	15800 ± 100 nM
